Values quoted from earlier work that unrelated publications cite.
Lines come from different studies, so protocols differ. ± gives the spread as reported.
Tspo: Translocator protein (Tspo, Rattus norvegicus, UniProt P16257)
Sequence of UniProt P16257 (whole entry, looked up): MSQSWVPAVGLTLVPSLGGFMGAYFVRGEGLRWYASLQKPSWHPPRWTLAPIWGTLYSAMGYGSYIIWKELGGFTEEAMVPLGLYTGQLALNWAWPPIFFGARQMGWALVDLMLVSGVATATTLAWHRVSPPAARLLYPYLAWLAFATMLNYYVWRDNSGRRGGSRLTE

NC(=O)[C@@H]1CC[C@@H]2CN1C(=O)N2OS(=O)(=O)O — IC50 (PBP3; highest tested 50 µM): > 50 µM
5′-methylthioadenosine — Km (Staphylococcus aureus MTAN; substrate; second active site): 0.9 µM
O=C(N[C@H]1COC(=O)[C@@H](NC(=O)c2cccc(O)c2[O-])COC(=O)[C@@H](NC(=O)c2cccc(O)c2[O-])COC1=O)c1cccc(O)c1[O-].[Fe+3] — Kd (Escherichia coli ferric siderophore transporters): ~0.0001 µM
C[C@]12CC[C@H]3[C@@H](CCC4=CC(=O)C=C[C@@]43O)[C@@H]1CCC2=O — EC50 (oestrogen receptor beta; binding, competition binding): > 10 µM
O=c1c(I)ccc2n1C[C@@H]1CNC[C@H]2C1 — EC50 (α4β2 nAChR high-sensitivity form; agonist; Xenopus oocytes): 0.0008 µM
CN(C)C(=N)N=C(N)N — Ki (dihydrofolate reductase (Escherichia coli); competitive inhibitor): 24000 µM
OCc1ccc(-c2nn(Cc3ccccc3)c3ccccc23)o1 — EC50 (soluble guanylate cyclase, bovine; enzyme activity, activator; without NO or CO): ~20 µM
CC[C@H](C)[C@H](NC(=O)[C@H](C)NC(=O)[C@H](CC(N)=O)NC(=O)[C@H](CCCCN)NC(=O)[C@H](Cc1ccccc1)NC(=O)[C@H](CC(C)C)NC(=O)[C@@H](NC(=O)[C@@H](NC(=O)[C@H](CC(C)C)NC(=O)[C@@H]1CCCN1C(=O)[C@@H](NC(=O)[C@H](CCC(N)=O)NC(=O)[C@H](CO)NC(=O)[C@H](CCCCN)NC(=O)[C@H](CCC(=O)O)NC(=O)[C@H](CO)NC(=O)[C@@H](NC(=O)[C@H](CCSC)NC(=O)[C@H](Cc1ccccc1)NC(=O)CNC(=O)CNC(=O)[C@@H](N)Cc1ccc(O)cc1)[C@@H](C)O)[C@@H](C)O)C(C)C)[C@@H](C)O)C(=O)N[C@H](C(=O)N[C@@H](CCCCN)C(=O)N[C@@H](CC(N)=O)C(=O)N[C@@H](C)C(=O)N[C@@H](Cc1ccc(O)cc1)C(=O)N[C@@H](CCCCN)C(=O)N[C@@H](CCCCN)C(=O)NCC(=O)N[C@@H](CCC(=O)O)C(=O)O)[C@@H](C)CC — EC50 (mu opioid receptor; cAMP inhibition, agonist): 0.0302 ± 0.011 µM
C#CCN(C)CCCOc1ccc(Cl)cc1Cl.Cl — inhibition (MAOA, rat; 5-HT deamination, inhibitor; rat, liver, ex vivo; subcutaneous, 0.3 mg/kg): ~60%
Ic1cncc(OC[C@@H]2CCN2)c1 — EC50 (GABA-A receptor (α4)2(β3)3; agonist; (α4)2(β3)3 form): ~0.01 µM
CCC(C(=O)O)c1ccc2cc(OC)ccc2c1 (racemic) — inhibition (COX-2; enzyme activity; concentration not given, together with: arachidonic acid 10 µM): inactive
C=CCN(CC=C)CCc1c[nH]c2ccc(OC)cc12 — Ki (Tspo): > 10 µM
CN1CCN(CCc2ccc(Cl)c(Cl)c2)CC1 — selectivity ratio (sigma-1 receptor; baseline: sigma-2 over sigma-1): ~50 fold
CC[C@H](C)[C@H](NC(=O)[C@@H](CCCNC(=N)N)NC(=O)[C@H](CCCNC(=N)N)NC(=O)[C@@H]1CCCN1C(=O)[C@@H]1CCCN1C(=O)[C@H](CCCNC(=N)N)NC(=O)[C@@H]1CCCN1C(=O)[C@H](CCCNC(=N)N)NC(=O)[C@@H]1CCCN1C(=O)[C@H](CC(C)C)NC(=O)[C@H](Cc1ccc(O)cc1)NC(=O)[C@@H]1CCCN1C(=O)[C@@H]1CCCN1C(=O)[C@H](CCCCN)NC(=O)[C@H](CC(=O)O)NC(=O)[C@@H](N)C(C)C)C(=O)N[C@@H](Cc1ccc(O)cc1)C(=O)N[C@@H](CC(N)=O)C(=O)N[C@H](CCCNC(=N)N)C(N)=O — Kd (Escherichia coli BL21(DE3)RIL ribosome; fluorescence polarization): 0.09 ± 0.003 µM
COc1ccc2c3c([nH]c2c1)[C@H](CC(C)C)N1C(=O)[C@H](CCC(=O)OC(C)(C)C)NC(=O)[C@@H]1C3 — efflux reduction (BCRP (human); rosuvastatin efflux, inhibitor; EpiIntestinal tissue model; 3 µM, together with: rosuvastatin; baseline: no inhibitor): 32.2 fold
c1cnc2cc3c(cc2n1)[C@@H]1CNC[C@H]3C1 — EC50 (α6β2* nicotinic receptor (rat); dopamine release, agonist; striatal synaptosomes): 0.007 µM
O=C(O)CCCC[C@@H]1SC[C@@H]2NC(=O)N[C@@H]21 — unbinding force (streptavidin; atomic force microscopy; concentration not given): 433 ± 33 pN
CC(=O)N(O)CCC[C@@H]1NC(=O)CNC(=O)CNC(=O)CNC(=O)[C@H](CCCN(O)C(C)=O)NC(=O)[C@H](CCCN(O)C(C)=O)NC1=O.[Fe+3] — Km (Escherichia coli ferric siderophore transporters; substrate): ~0.0001 µM
Cc1c(COC(=O)[C@@H]2[C@H](/C=C(\Cl)C(F)(F)F)C2(C)C)cccc1-c1ccccc1 (racemic) — activity call (human FXR alpha; antagonist, Tox21 qHTS or literature; concentration not given): active
C=CCN(CC=C)CCc1c[nH]c2ccc(Br)cc12 — Ki (Tspo): > 10 µM

A few entries again:
O=C(O)CCCC[C@@H]1SC[C@@H]2NC(=O)N[C@@H]21 — unbinding force (streptavidin; atomic force microscopy; concentration not given): 433 ± 33 pN
CC(=O)N(O)CCC[C@@H]1NC(=O)CNC(=O)CNC(=O)CNC(=O)[C@H](CCCN(O)C(C)=O)NC(=O)[C@H](CCCN(O)C(C)=O)NC1=O.[Fe+3] — Km (Escherichia coli ferric siderophore transporters; substrate): ~0.0001 µM
